# Published values collected from several papers.
# Parts stem from different laboratories: compare values within a part only. Changes are numbered by the printed parent chain.
# UniProt Q9C0B0, sequence (30-357, looked up): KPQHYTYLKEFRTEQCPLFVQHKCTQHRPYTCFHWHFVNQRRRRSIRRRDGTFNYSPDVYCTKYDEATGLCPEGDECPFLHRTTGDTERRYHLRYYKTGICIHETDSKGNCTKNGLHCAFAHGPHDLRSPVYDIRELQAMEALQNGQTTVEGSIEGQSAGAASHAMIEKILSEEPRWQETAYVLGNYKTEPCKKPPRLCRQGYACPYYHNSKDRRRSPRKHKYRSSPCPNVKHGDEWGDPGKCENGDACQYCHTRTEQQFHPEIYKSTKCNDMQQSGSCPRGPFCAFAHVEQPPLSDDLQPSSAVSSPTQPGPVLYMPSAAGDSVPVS

# Sample 1
# Target: HLF, bZIP domain (human)
# Technique: DHFR protein complementation
# Medium: yeast
# Notes: single substitutions, most at no-binding floor
# Relative to: wild-type JUN-FOS pair
# Reading: higher = stronger binding
# Starting sequence: JUN, bZIP domain (human); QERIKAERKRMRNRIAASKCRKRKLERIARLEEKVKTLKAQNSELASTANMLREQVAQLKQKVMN; partner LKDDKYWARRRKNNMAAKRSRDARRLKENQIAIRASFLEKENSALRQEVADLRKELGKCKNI
Change,binding fitness [natural log]
A29V,-1.4
A29S,-1.47
L52I,-1.47
V56Q,-1.61
R30E,-1.37
N42E,-1.51
T37D,-1.47
E44F,-1.42
Q41F,-1.43
M51N,-1.44
E33S,-1.34
A46G,-1.47
N42M,-1.49
K39M,-1.22
L59W,-1.32
A49F,-1.34

# Sample 2
# Target: CCNB1, cyclin fold, Cln2 fusion (human)
# Technique: yeast growth competition, sequencing
# Medium: yeast
# Notes: weak parent motif
# Relative to: not given
# Reading: higher = stronger binding
# Starting sequence: CDKN1C docking peptide (human); TSACRSLFGPVDH
Change,normalised enrichment score
TSACRSLFGPVDA [H13A],0.374
TSACRALFGPVDH [S6A],0.447
ASACRSLFGPVDH [T1A],0.543
TSACRSLLGPVDH [F8L],0.392
TSACRSLFGPADH [V11A],0.563
TSACRSLFGAVDH [P10A],0.324
TSACRSLFGPVAH [D12A],0.674

# Sample 3
# Target: Histone acetyltransferase KAT6A, both winged helices, GST fusion (KAT6A, Homo sapiens, UniProt Q92794, residues 1-181)
# Technique: protein binding microarray
# Molecule type: double-stranded DNA, one strand shown
# Medium: in vitro
# Concentration: not given
# Notes: 8-mer, flanks averaged, mean of 2 arrays, mostly near background
# Relative to: not given
# Reading: higher = stronger binding
# Residues (chain): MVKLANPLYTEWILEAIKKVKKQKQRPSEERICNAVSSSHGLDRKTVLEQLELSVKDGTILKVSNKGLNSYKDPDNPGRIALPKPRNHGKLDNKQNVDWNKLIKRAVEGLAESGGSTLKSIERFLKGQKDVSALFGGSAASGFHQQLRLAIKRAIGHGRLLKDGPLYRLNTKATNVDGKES
Sequence,E-score
TCTGCGAA,-0.0999
GGTTTGCA,-0.0424
AAGCGACC,0.109
CTGAAACA,-0.101
AACATTAG,-0.093
AATCGGCT,0.106
GGGTCAAC,-0.108
ACCTTAAG,-0.0366
ACGTGGAT,-0.0603
CCCGTCAG,0.16
CGGACAGC,0.143
AGGCTCTC,-0.0151
AGGTGTCA,-0.0685
CATTATAG,0.0031
CTTTCATC,-0.201
CGGGTTGA,0.185
CTATAACC,-0.0595

# Sample 4
# Target: Fragile X messenger ribonucleoprotein 1, C-terminal low-complexity region (Fmr1, Mus musculus, UniProt P35922)
# Technique: RNA Bind-n-Seq
# Molecule type: RNA
# Medium: in vitro
# Concentration: 200 nM
# Notes: whole 134-nt RNA, ends assumed
# Added: 150 mM KCl
# Relative to: input library
# Reading: higher = stronger binding
# All sequences stand within: GGGAGUUCUACAGUCCGACGAUC … UGGAAUUCUCGGGUGUCAAGG
Sequence,log2 enrichment
CAAGUCCUGUGCUACACAUCGUAUGUACCGAAUCGGGAAAAAGGGUUUGGGAGGGAAAGUAUUAUGUUACGCCGUUCGGAUCUGCACUUC,0.93
CUCAAGUCCUGUGCUACACAUCGUAUGUACCGAAUCGGAAGGAAGGGGAAGGGAAAGUAUUAUGUUACGCCGUUCGGAUCUGCACUUCCA,-0.0798
CAAGUCCUGUGCUACACAUCGUAUGUACCGAAUCGGAAAGGUUUUUUUGGUUUGGAAAGUAUUAUGUUACGCCGUUCGGAUCUGCACUUC,-1.17
CUGUGCUACACAUCGUAUGUACCGAAUCGGGGCCCCCCCGGGGCCCCCCCGGCCCCCCCGGGAAAGUAUUAUGUUACGCCGUUCGGAUCU,-1.2
CUCAAGUCCUGUGCUACACAUCGUAUGUACCGAAUCGGGUGGGGUGGGGUGGGGAAAGUAUUAUGUUACGCCGUUCGGAUCUGCACUUCC,1.2
UCCUGUGCUACACAUCGUAUGUACCGAAUCAAACCCCCCCAAAUUUUUAAACCCCCAAAAAAGUAUUAUGUUACGCCGUUCGGAUCUGCA,-0.108
CCUGUGCUACACAUCGUAUGUACCGAAUCGGGGUUUUUUGGUUUUUUGGGGUUUUUUGGGGAAAGUAUUAUGUUACGCCGUUCGGAUCUG,-0.686
CUGUGCUACACAUCGUAUGUACCGAAUCGGUUUUUUUGGGUUUUUUUGGGGUUUUUUUGGGAAAGUAUUAUGUUACGCCGUUCGGAUCUG,-0.762
UCCUGUGCUACACAUCGUAUGUACCGAAUCAAAUUUAAAUUUUUUUAAAUUUUUUUAAAAAAGUAUUAUGUUACGCCGUUCGGAUCUGCA,-0.54
UUGUUUGAAACAGCAACGCUUCGGUCAGGGUAUCUUUUACCAGACACUAAAGCAUAUGGAGAUAGAAUAGAAAGAAUGCUUCGCCUCAGU,-1.04
UGGGAGGUGGAUUUUGUUUAUUUUUUUAGCUCAUCUCCAGGGGUGGGAAUUUUUUUUUAAUAUGUGUCAUGAAUAAAGUUGUUUUUGAAA,0.203
UGGCCCUGGUGGCAUGCGGGGAGGAAGAGGUGGCCUCAUGGAUCGUGGUGGUCCCGGUGGAAUGCUCAGAGGUGGCCGUGGUGGAGACAG,0.0217
UCCUCAAGUCCUGUGCUACACAUCGUAUGUACCGAAUCGGCGGGCGGGGCGGAAAGUAUUAUGUUACGCCGUUCGGAUCUGCACUUCCAG,0.339
UAACUUUAGAGGAGGAACUGAUGGAUAUGGCAGUGGACGUGGAUUUGGGGAUGGCUAUAAUGGGUAUGGAGGAGGACCUGGAGGUGGCAA,0.281

# Sample 5
# Target: Sal-like protein 4, full length isoform A (SALL4, Homo sapiens, UniProt Q9UJQ4, residues 1-1053)
# UniProt Q9UJQ4, sequence (whole entry, looked up): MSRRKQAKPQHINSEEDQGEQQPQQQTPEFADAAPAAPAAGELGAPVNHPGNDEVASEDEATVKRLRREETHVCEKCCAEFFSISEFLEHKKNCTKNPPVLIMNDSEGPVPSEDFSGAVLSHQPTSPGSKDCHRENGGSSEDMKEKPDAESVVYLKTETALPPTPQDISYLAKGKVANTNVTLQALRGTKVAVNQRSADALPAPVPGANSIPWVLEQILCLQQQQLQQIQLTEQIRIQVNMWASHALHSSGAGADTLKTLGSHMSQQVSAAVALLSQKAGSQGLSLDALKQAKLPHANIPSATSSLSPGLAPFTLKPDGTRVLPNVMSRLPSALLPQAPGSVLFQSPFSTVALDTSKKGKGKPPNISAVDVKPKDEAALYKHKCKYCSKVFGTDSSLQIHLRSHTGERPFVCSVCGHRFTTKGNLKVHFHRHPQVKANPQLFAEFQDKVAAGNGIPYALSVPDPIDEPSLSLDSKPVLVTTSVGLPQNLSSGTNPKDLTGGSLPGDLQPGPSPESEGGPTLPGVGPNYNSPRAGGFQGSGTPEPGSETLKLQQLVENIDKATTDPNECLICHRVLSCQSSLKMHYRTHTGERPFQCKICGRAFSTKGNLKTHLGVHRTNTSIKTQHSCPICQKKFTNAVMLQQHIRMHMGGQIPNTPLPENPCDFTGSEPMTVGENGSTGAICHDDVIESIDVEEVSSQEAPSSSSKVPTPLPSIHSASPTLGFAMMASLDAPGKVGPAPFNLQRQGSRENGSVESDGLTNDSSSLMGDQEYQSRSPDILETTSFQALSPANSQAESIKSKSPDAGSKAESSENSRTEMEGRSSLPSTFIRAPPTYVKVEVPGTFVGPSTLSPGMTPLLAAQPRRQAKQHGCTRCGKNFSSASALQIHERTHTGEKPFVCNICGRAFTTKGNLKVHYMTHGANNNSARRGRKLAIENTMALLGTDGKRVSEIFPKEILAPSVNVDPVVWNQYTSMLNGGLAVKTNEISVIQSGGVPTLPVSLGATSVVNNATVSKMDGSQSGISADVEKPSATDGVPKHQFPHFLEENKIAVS
# Technique: universal PBM
# Molecule type: double-stranded DNA, one strand shown
# Medium: in vitro
# Concentration: 600 nM
# Notes: 8-mer, flanks averaged, mean of replicates
# Reading: higher = stronger binding
Sequence,E-score
AGAAGGCC,-0.145
AAAACTCA,0.217
CGAATAAG,0.185
GGAACCCA,-0.292
GCGTATGA,0.0758
CGAAAATC,0.173
AGGCGCAA,4e-05
TCTGAACA,0.0943
CAAGACCC,-0.165
AGTCGGCA,-0.134
CACGCGGC,-0.306
GGTGGCTA,-0.193
CGTATTAG,0.176
ACAATCCT,0.192
ACCAGGTC,-0.153
CGGCATTC,-0.0721
CCGTACAA,0.0639
ATCAAAAC,0.217
GCGAGGAA,-0.0541
GAAAATCC,0.104
ACATGCAC,0.0744
ATAGGCTC,0.0342
TAGTGTGA,0.211
CAATCTAA,0.093
GCTCGATA,0.00375

# Sample 6
# Target: RNA binding protein fox-1 homolog 2, RRM domain, GST-SBP tag (RBFOX2, Homo sapiens, UniProt O43251-10, residues 100-194)
# Technique: RNA Bind-n-Seq
# Molecule type: RNA
# Medium: in vitro
# Concentration: 365 nM
# Notes: natural RNA segment, single round, ends assumed
# Relative to: no-protein control
# Reading: higher = stronger binding
# All sequences stand within: GGGAGUUCUACAGUCCGACGAUC … UGGAAUUCUCGGGUGCCAA
# Construct (chain): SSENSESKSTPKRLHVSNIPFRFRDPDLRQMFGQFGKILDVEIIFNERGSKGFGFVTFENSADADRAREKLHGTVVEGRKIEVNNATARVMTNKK
Sequence,RBNS enrichment (R)
CAUUUGUUUGGAAUCGUGCCACUGCUGGUCUGCGCCAGAUGUACCGUCCUUUCCAAUACGAUUUUCUGUUGCACCUUGUAGUGGAUUCUGCAUAUCAUCUUUCCCACCUA,0.31
UCUUCAGGAGUGUGCUUAUGUCUGUAAAUUGCUGGAGAGGGGGUAGAUGGGCCAGGACAACCAGCAAGACACCUGUUGGGAAGCACCGGGUAUAGAAUCAUAUUUGGUGU,0.706
GCAGGUGCCGAGUGUCAGAUAGCAUCGGUCCAGAGCUCGUCAGAGGCCCCUGACAGUGGAAACAGAAGAUGCUAAGCUGUCAUAGGUGGAGCAGGAUCCUAAGGACGCAC,0.308
UUCCCGCGCACUGAAAGGGCAGAGUAGGCCGAAGGGUCCAAGGGCCAGACUGCCUCACCCUCUGCCCUAAUCAGCAGGGUGGGCCUGCCUUUUGCUAAGCGAUCUCUAUG,0.207
GCACUGGGCAACCUCAUCUUGCCUGCUCUCCCGCACCUGCUGGGACAUGAGCAUCUUGGGAUAUCUCUUUAACACUCAAGUAGCAAUUAAAGUUGAUUGUUCAGCUGGAG,0.343
AAAAAUCAACUCACUGUUCAGUGCUGAGAGGGGAUGUAGGCCCAUGGGCACCUGGCCUCCAGGAGUCGCUGUGUUGGGAGAGCCGGCCACGCCCUUGGCUUUAGAGCUGU,0.406
GCCUCCUCCUUUCUCUGGCCUCUUCCCCCUUCCCUCUUCUCUUCAGCUAGGCUAGCUGGUUUGGAGUAGAAUGGCAACUAAUUCUAAUUUUUAUUUAUUAAAUAUUUGGG,0.385
UGAUGUGGGGAUGGGCCUCUUCUACAUUACCUUGGCCCAGGGGGAUCAGCUGGCUGGGAGGAUUAGUGAGCACCUCUGUAUUUUGAGGUCUGAGUCUUCUGGAGCUGUGU,0.446
UUCGGAGCAUGAAGACCCUGGAGUUCAAAAAACUCUUGAUAUGACCUGUUAUUACCAUUAGCAUUCUGGUUUUGACAUCAGCAUUAGUCACUUUGAAAUGUAACGAAUGG,4.9
CAAAACCUGGAGCAAUUUAAAUAGGCUAAAUGGUUUUGAUUAAAUCUUGAGCUCCGAGUUGGAAGGAGAAAAUGAGAAGUUAACCCCUUGAGCCAUGUGGUCUCUUUACA,0.508
GGCUGCGCCUGCUGCCUCCAGCCCUGAGGAUGGCAUCUAGUGUGCCCGUGCGUGGCCAUACCCUGCCUCCCUCUCUGGCCCUGGGAGGGCAGCUUGGAGCCCAGGUAGGG,0.799
UUAGGGUUUCCCUGCCCACUCUGCAGGAGCAGAUGUUGGACAGGUAGCCAGUGGGAUGCCACUGCUUGCCACCACCUGUCCCCAGGCUUAGGUUUAGGGGAUGCGUAUAC,0.215

# Sample 7
# Target: ABI1, truncated, D143A, DHFR fusion (Arabidopsis thaliana)
# Technique: DHFR PCA, deep sequencing
# Medium: yeast
# Notes: methotrexate growth selection, single substitutions
# Added: (+)-ABA 0.032 µM
# Relative to: wild-type fitted maximum
# Reading: higher = stronger binding
# Starting sequence: PYL1, truncated, DHFR fusion (Arabidopsis thaliana); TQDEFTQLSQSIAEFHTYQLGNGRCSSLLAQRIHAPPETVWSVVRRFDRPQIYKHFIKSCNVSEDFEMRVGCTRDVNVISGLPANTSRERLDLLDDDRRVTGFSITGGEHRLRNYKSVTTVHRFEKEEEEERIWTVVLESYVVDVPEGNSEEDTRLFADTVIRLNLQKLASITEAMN; partner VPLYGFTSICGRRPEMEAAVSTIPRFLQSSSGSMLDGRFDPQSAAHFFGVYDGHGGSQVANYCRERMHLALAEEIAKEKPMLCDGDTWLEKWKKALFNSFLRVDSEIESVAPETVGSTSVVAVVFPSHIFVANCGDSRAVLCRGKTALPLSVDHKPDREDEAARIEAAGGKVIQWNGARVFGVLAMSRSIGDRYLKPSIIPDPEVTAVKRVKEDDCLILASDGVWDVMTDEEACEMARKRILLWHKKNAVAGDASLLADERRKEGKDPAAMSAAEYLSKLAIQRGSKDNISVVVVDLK
Change,relative binding score [%]
A158I,41.4
R45F,-5.41
T160W,-4.67
V143F,-3.92
L138W,0.0415
C25L,3.99
F47H,-4.1
M68H,3.84
E38G,1.1
R132P,45.8
T120F,-1.58
R98N,10.2
R111Q,5.61
N177I,17.1
R90L,-3.01
F47A,-1.94
S11C,30.3

# Single results of other studies
Sequence,target,test,test system,setting,how to read,measurement,result
GGGAGUUCUACAGUCCGACGAUCAUUGGAUGCAGUGUAACACUAUCCAAGGCAGUGACUUCAGCUUUAUAUACAUAUAAAAUACCGUCCGUUUUAAAAUUAUUGACAUUUAUUUAAACUUUCCGAUUGGAUUGUUUGCUAUUGCAACAGAGGAUUGAGCAUCA,"RING finger protein unkempt homolog, zinc fingers 1-6, SBP tag (UNK, Homo sapiens, UniProt Q9C0B0, residues 30-357)",RNA Bind-n-Seq,"RNA, in vitro","100 nM, RNA with constant flanks, ends assumed","relative to: input RNA pool, higher = stronger binding",bound/input enrichment,0.58 ratio

# A few entries again (sample 1):
Change,binding fitness [natural log]
L59W,-1.32
N42E,-1.51
N42M,-1.49
R30E,-1.37
Q41F,-1.43
K39M,-1.22
E44F,-1.42
A46G,-1.47
M51N,-1.44
L52I,-1.47
A29S,-1.47
A29V,-1.4
A49F,-1.34
V56Q,-1.61
E33S,-1.34
T37D,-1.47
